Experimental data gathered from unrelated publications.
Lines come from different studies, so protocols differ. ± marks the error that the study gave.
Cell line: MCF7

Compound	effect on	method	matrix	time	setting	added	IC50
[O-][n+]1nc(NCCCNc2n[n+]([O-])c3ccccc3[n+]2[O-])nc2ccccc21	cytotoxicity	MTT	10% FBS medium	6 h + 18 h	hypoxia 3% O2		24 ± 3.3 µM
COc1ccc(/C=C\c2cc(OC)c(OC)c(OC)c2)cc1O	cell growth or viability	SRB					0.039 µM
CC(=O)c1nn(-c2ccc(Cl)cc2[N+](=O)[O-])/c(=N/N=C(\C)c2ccc(NC(=O)c3cccnc3)cc2)s1	cytotoxicity	MTT		24 h			10.4 ± 0.8 µM
[O-][n+]1nc(NCCCCCCCCNc2n[n+]([O-])c3ccccc3[n+]2[O-])nc2ccccc21	cytotoxicity	MTT	10% FBS medium	6 h + 18 h	hypoxia 3% O2		> 30 µM
O=C(c1ccc2ccccc2c1)c1cn(-c2ccccc2)nc1C1=Nn2cnnc2SC1	cell growth or viability	MTT		48 h			6.24 µM
CC/C(=C(\c1ccccc1)c1ccc(OCCN(C)CCOCCOCCOc2ccc3[nH]cc(CCNC(C)=O)c3c2)cc1)c1ccccc1	cell survival	MTT		day 9	dosed days 2, 4, 7		21.3 µM
N#Cc1c(-c2ccc(Cl)cc2)c2c(=O)[nH]c(CCl)nc2n(C2CCCCC2)c1=O	cell growth or viability	MTT					1.29 µM
CCN1CCC2(CC1)C/C(=N\N=C\c1ccc(N(C)C)cc1)c1ccccc1O2	cell growth or viability	MTT		48 h			80 µM
[O-][n+]1nc(NCCCCNc2n[n+]([O-])c3ccccc3[n+]2[O-])nc2ccccc21	cytotoxicity	MTT	10% FBS medium	6 h + 18 h	hypoxia 3% O2		> 30 µM
O=C(CSc1nc2ccccc2c(=O)n1-c1ccc(Cl)cc1)NNC(=O)Nc1ccccc1	cell growth or viability	MTT					12.5 µM
O=C(Nc1nnc(NC(=O)c2cc3ccccc3oc2=O)s1)c1ccccc1	cell growth or viability	MTT		48 h			64.1 µM
COc1ccc(NC(=O)NNC(=O)CSc2nc3ccccc3c(=O)n2-c2ccc(C)cc2)cc1	cell growth or viability	MTT					76.1 µM
[O-][n+]1nc(NCCCCCCCNc2n[n+]([O-])c3ccccc3[n+]2[O-])nc2ccccc21	cytotoxicity	MTT		24 h	normoxia		> 30 µM
C=CCc1ccc(O)c(-c2ccc(O)c(CC=C)c2)c1	cell proliferation	MTS		72 h		10 µM BLM	2.51 µM
CN(C)C/C=C/C(=O)Nc1cc2c(Nc3ccc(F)c(Cl)c3)ncnc2cc1O[C@H]1CCOC1	cell growth or viability	MTT		72 h			11.6 µM
Cc1ccc(-n2c(SCC(=O)NNC(=O)Nc3ccc(F)cc3)nc3ccccc3c2=O)cc1	cell growth or viability	MTT					52.5 µM
N#CC(C(=O)Nc1nnc(NC(=O)c2ccccc2)s1)=C1SCCN1c1ccccc1	cell growth or viability	MTT		48 h			36.2 µM
O=c1[nH]cc(F)c(=O)[nH]1	cell growth or viability	MTT		72 h			46 µM
COc1ccc(C=NNC(=O)C(C#N)=C2Sc3nc4ccc(S(=O)(=O)N5CCCC5)cc4nc3S2)cc1	cell growth			24 h			11.3 ± 0.9 µM
O=C(c1ccc2ccccc2c1)c1cn(-c2ccccc2)nc1C1=Nn2c(S)nnc2SC1	cell growth or viability	MTT		48 h			2.74 µM
CC(=O)O[C@H]1C(=O)O[C@@H]2C[C@H]3C(C)=CC(=O)[C@@H](O)[C@]3(C)[C@H]3[C@]4(O)OC[C@]32[C@@H]1[C@@H](C)[C@H]4O	cell growth or viability			24 h			11 µM
CCOC(=O)C(C(C)=O)=C1Sc2nc3ccc(S(=O)(=O)N4CCCC4)cc3nc2S1	cell growth			24 h			≤ 8.78 µM
N#CCC(=O)Nc1nnc(NC(=O)c2ccccc2)s1	cell growth or viability	MTT		48 h			23.8 µM
N#Cc1c(-c2ccc(Cl)cc2)c2c(=O)[nH]cnc2n(C2CCCCC2)c1=O	cell growth or viability	MTT					3.15 µM
NCCCCCCCNc1n[n+]([O-])c2ccccc2[n+]1[O-]	cytotoxicity	MTT	10% FBS medium	6 h + 18 h	hypoxia 3% O2		88.6 ± 0.1 µM

Compound	effect on	method	matrix	time	setting	added	IC50
COc1ccc(C=C(C#N)C(=O)Nc2nnc(NC(=O)c3ccccc3)s2)cc1				48 h			9.48 ± 0.8 µM
COc1cccc2c1C(=O)c1c(O)c3c(c(O)c1C2=O)C[C@@](O)(C(=O)CO)C[C@@H]3O[C@H]1C[C@H](N)[C@H](O)[C@H](C)O1	cell growth or viability	MTT		48 h			17.2 µM
O=C(/C=C/c1ccc(O)cc1)CC(=O)/C=C/c1ccc(O)cc1	cell growth or viability	MTT		48 h			28.2 µg/mL
N#Cc1c(-c2ccc(Cl)cc2)c2c(=O)[nH]c(-c3ccccc3)nc2n(C2CCCCC2)c1=O	cell growth or viability	MTT					≥ 50 µM
COc1ccc(-n2c(SCC(=O)NNC(=O)Nc3ccc(C(F)(F)F)cc3Cl)nc3ccccc3c2=O)cc1	cell growth or viability	MTT					61.9 µM
Cn1nnc2c(C(N)=O)ncn2c1=O	cell proliferation	MTS		24 h		10 µM HNL	200 µM
N#CC(=Cc1ccc(Cl)cc1Cl)C(=O)Nc1nnc(NC(=O)c2ccccc2)s1	cell growth or viability	MTT		48 h			5.51 µM
[O-][n+]1nc(NCCNc2n[n+]([O-])c3ccccc3[n+]2[O-])nc2ccccc21	cytotoxicity	MTT		24 h	normoxia		> 70 µM
CC1=NN(c2ccccc2)C(=O)C1=C1Sc2nc3ccc(S(=O)(=O)N4CCCC4)cc3nc2S1	cell growth			24 h			85.7 ± 4.3 µM
Brc1ccccc1SSc1ccccc1Br	cell growth or viability	SRB					> 10 µM
COc1ccc(-n2c(SCC(=O)NNC(=O)NCc3ccccc3)nc3ccccc3c2=O)cc1	cell growth or viability	MTT					82.8 µM
CN1CCC2(CC1)C/C(=N\N=C\c1ccc(O)cc1)c1ccccc1O2	cell growth or viability	MTT		48 h			10.1 µM
Nc1nnc(NC(=O)c2ccccc2)s1	cell growth or viability	MTT		48 h			12.4 µM
Cc1nc2ccccc2nc1SCC(=O)Nc1ccc(C(=O)NNC(=O)c2ccccc2O)cc1	cell growth or viability	MTT					35.8 µM
CC(C)c1cnn2c(NCc3ccccc3)cc(NCCCCCCN)nc12	RNA Pol II CTD Ser5 phosphorylation	immunoblot densitometry		4 h			9 µM
O=S(=O)(Sc1cccc(Cl)c1)c1cccc(Cl)c1	cell growth	sulforhodamine B					> 10 µM
C=CCc1ccc(OCc2nn(CN3CCCCC3)c(=S)o2)c(OC)c1	cell growth or viability	MTT		72 h			33.2 µM
NCCNc1n[n+]([O-])c2ccccc2[n+]1[O-]	cytotoxicity	MTT	10% FBS medium	6 h + 18 h	hypoxia 3% O2		33.4 ± 9.4 µM
O=S(=O)(Sc1ccccc1Cl)c1ccccc1Cl	cell growth	sulforhodamine B					> 10 µM
Cc1ccc(-n2c(SCC(=O)NNC(=O)NCc3ccccc3)nc3ccccc3c2=O)cc1	cell growth or viability	MTT					9.43 µM
CC(=O)/C=C(O)/C=C/c1ccc(O)c(O)c1	cell growth or viability	MTT		72 h			< 10 µM
Cc1nc2ccccc2nc1SCC(=O)Nc1ccc(C(=O)Nc2cccc(Cl)c2)cc1	cell growth or viability	MTT					5.8 µM
CCOC(=O)Cn1c(-c2ccc(Cl)cc2)cc(-c2ccc(O)c(OC)c2)c(C#N)c1=O	cell growth or viability	MTT					4.15 µM
Fc1cccc(SSc2cccc(F)c2)c1	cell growth or viability	SRB					> 10 µM
